# Results collected from several papers.
# ± marks the error that the study gave.
# SIRT3: NAD-dependent protein deacetylase sirtuin-3, mitochondrial (SIRT3, Homo sapiens, UniProt Q9NTG7)
# Chain of UniProt Q9NTG7 (whole entry, looked up): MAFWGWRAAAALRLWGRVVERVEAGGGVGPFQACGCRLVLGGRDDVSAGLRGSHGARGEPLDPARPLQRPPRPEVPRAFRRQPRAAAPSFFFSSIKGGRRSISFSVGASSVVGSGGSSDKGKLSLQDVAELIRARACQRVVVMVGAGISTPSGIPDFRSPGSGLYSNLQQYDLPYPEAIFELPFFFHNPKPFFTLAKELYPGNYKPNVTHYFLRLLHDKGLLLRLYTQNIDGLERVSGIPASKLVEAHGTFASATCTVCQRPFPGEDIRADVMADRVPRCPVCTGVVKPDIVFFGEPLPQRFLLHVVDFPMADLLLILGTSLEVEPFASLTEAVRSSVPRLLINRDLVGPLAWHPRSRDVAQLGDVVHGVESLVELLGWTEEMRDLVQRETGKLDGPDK
# MGLL: Monoglyceride lipase (MGLL, Homo sapiens, UniProt Q99685)
# Chain of UniProt Q99685 (whole entry, looked up): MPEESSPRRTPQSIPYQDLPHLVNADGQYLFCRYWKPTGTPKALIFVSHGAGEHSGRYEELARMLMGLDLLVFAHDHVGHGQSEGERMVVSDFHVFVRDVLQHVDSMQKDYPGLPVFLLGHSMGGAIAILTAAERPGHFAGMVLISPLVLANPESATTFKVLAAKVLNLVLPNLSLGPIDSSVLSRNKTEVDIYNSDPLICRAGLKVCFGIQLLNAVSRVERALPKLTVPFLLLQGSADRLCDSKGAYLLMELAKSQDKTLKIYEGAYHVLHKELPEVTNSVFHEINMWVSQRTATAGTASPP
# Proteasome component C5/PSMB5: Proteasome component C5/PSMB5 (Homo sapiens, UniProt P20618+P28074)
# Chain of UniProt P28074 (whole entry, looked up): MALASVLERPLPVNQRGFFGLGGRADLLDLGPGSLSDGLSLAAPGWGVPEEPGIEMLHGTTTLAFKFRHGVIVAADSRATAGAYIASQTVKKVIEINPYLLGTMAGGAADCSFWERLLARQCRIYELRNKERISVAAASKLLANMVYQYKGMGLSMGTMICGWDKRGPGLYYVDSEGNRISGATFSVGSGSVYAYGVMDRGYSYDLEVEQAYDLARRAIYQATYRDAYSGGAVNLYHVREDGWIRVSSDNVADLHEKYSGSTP
# Chain of UniProt P20618 (whole entry, looked up): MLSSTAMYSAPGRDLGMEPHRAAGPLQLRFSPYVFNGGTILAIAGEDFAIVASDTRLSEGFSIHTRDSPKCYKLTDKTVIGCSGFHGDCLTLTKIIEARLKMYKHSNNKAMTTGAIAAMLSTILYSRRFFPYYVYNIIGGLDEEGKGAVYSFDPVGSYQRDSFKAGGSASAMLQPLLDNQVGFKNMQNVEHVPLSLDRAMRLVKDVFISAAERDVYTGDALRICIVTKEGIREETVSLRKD
# TRPM8: Transient receptor potential cation channel subfamily M member 8 (TRPM8, Homo sapiens, UniProt Q7Z2W7)
# Chain of UniProt Q7Z2W7 (whole entry, looked up): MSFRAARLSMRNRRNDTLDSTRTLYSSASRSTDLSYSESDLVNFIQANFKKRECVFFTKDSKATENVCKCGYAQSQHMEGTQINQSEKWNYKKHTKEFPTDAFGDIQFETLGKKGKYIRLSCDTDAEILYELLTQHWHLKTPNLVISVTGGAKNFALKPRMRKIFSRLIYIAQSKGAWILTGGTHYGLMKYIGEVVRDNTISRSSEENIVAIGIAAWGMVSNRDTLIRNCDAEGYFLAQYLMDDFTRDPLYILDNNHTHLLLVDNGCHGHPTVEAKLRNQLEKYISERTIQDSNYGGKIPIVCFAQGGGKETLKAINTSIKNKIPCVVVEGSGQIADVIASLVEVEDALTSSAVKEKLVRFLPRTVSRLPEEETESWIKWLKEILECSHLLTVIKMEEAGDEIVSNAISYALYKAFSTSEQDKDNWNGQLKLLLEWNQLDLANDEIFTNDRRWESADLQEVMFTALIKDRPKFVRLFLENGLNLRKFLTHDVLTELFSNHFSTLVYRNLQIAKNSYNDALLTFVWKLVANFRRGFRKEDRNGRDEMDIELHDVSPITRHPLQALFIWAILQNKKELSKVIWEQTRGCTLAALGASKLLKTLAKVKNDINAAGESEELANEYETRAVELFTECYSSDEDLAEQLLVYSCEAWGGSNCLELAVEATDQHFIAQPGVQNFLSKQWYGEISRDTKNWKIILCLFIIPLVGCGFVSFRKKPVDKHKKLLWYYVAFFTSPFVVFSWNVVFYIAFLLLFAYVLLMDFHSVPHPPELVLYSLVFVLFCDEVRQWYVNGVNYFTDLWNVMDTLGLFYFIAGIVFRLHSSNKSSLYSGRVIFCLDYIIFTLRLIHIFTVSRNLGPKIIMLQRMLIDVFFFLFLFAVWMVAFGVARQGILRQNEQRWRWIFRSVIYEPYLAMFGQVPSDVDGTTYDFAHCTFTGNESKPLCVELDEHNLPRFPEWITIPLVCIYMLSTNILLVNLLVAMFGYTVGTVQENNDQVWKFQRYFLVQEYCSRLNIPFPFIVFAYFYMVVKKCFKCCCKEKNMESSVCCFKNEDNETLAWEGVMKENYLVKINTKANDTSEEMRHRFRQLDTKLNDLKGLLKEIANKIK
# Chain of UniProt P03303 (whole entry, looked up): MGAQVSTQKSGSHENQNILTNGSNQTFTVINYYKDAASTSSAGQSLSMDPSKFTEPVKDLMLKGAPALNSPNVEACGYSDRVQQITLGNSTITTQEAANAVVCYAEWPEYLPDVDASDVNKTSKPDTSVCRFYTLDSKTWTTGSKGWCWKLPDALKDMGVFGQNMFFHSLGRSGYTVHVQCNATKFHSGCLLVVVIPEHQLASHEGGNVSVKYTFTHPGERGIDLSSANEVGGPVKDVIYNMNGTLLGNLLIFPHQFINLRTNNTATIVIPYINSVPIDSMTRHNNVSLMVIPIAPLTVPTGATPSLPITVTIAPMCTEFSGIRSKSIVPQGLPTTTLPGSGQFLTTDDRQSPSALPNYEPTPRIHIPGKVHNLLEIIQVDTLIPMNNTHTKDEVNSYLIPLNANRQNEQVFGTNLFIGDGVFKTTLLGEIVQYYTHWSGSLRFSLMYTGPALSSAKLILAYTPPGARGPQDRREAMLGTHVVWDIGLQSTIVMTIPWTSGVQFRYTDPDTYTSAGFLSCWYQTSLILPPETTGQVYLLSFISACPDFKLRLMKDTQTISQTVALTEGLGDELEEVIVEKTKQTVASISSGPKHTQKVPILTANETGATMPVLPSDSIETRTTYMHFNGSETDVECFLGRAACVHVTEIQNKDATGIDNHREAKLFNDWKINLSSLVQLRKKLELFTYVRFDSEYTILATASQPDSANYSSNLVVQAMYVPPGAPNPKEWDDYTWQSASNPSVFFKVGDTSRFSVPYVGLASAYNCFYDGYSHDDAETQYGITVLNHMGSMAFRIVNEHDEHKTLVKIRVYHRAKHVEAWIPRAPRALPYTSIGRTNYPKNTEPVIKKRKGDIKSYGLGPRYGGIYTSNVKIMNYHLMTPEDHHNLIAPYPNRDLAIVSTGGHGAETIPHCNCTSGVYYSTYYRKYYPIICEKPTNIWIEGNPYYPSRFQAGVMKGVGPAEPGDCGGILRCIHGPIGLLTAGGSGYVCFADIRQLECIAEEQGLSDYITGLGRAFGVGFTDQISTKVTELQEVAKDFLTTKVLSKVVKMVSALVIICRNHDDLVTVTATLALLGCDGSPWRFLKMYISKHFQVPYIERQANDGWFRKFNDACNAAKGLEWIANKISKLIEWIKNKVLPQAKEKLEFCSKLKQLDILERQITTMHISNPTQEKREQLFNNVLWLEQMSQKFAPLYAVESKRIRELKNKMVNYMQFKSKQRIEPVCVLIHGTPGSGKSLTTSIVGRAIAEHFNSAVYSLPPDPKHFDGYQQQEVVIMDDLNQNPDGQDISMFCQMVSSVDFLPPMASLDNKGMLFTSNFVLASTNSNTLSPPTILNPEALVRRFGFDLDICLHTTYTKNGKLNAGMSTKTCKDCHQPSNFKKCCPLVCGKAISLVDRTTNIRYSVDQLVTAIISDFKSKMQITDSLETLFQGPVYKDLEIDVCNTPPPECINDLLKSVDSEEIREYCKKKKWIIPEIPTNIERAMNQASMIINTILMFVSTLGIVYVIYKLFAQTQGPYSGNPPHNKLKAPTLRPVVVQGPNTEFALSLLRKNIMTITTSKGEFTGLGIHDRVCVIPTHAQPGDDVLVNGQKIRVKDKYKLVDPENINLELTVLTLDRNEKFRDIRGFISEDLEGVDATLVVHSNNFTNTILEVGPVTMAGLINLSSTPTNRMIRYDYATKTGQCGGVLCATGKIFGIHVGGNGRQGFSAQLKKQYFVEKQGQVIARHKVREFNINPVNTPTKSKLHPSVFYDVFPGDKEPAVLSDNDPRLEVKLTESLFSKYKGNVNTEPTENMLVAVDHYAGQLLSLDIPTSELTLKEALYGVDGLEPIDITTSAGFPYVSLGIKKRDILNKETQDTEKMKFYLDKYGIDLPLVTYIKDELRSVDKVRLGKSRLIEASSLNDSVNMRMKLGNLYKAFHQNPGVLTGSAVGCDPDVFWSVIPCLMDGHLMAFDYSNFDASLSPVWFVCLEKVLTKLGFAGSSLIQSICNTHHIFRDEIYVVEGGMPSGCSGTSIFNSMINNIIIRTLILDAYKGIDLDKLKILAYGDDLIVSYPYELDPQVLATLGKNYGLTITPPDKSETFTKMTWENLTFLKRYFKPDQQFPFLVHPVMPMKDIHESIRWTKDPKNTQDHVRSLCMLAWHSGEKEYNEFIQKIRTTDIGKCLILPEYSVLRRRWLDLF
# Chain of UniProt P16389 (whole entry, looked up): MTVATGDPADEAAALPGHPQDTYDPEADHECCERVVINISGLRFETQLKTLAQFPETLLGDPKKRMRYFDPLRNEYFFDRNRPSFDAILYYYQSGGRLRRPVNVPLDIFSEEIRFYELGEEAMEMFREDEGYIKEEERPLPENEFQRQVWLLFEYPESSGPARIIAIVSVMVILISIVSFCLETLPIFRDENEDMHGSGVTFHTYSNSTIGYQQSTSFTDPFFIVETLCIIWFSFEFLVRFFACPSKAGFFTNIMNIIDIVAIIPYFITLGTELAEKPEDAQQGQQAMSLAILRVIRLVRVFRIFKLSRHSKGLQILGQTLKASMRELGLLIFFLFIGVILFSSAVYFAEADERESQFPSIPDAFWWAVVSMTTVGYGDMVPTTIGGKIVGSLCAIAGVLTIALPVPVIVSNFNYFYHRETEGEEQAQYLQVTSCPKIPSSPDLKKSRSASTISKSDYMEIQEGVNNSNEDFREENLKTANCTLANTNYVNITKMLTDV
SMILES,target,test,test system,setting,IC50
Cc1cc(C)nc(SCC(=O)Nc2ncc(Cc3cccc(OCc4cn(Cc5ccc(C#N)cc5)nn4)c3)s2)n1,SIRT3,"enzyme activity, inhibitor, fluorescence",,,> 100000 nM
C[C@H](OP(=O)(O)O)[C@H]1NC(=O)[C@H](CCCNC(=N)N)NC(=O)[C@H](CCCNC(=N)N)NC(=O)[C@@H](CCCNC(=N)N)NC(=O)[C@H](CCCNC(=N)N)NC(=O)[C@H](Cc2ccc3ccccc3c2)NC(=O)[C@@H]2CCCCN2C1=O,"PIN1 (Homo sapiens, UniProt Q13526)",fluorescence anisotropy competition,,added: FITC-labelled probe,5490 ± 160 nM
O=C(OC(C(F)(F)F)C(F)(F)F)N1CCC(CCn2ccc3ccncc32)CC1,MGLL,"enzyme activity, inhibitor",,,560 nM
C[C@H](NC(=O)C(=O)O)C(=O)O,"KDM4E (Homo sapiens, UniProt B2RXH2)","enzyme activity, inhibitor",,,285000 nM
NCCCC[C@@H](NC(=O)CCCCCNC(=O)c1ccc(-c2ccnc(N)n2)s1)C(=O)NCCCCCC(=O)N[C@H](CCCN=C(N)N)C(=O)N[C@H](CCCN=C(N)N)C(=O)N[C@H](CCCN=C(N)N)C(=O)N[C@H](CCCN=C(N)N)C(=O)N[C@H](CCCN=C(N)N)C(=O)N[C@H](CCCN=C(N)N)C(N)=O,"cGMP-dependent protein kinase 1, isoform alpha (PRKG1, Bos taurus, UniProt P00516)","inhibitor, fluorescence intensity displacement",,added: ARC-1059 probe and cGMP 40 µM,17 nM
CCCCCCCCCCCCCC(=S)NCCCC[C@H](NC(=O)[C@@H]1CCCN1)C(=O)N[C@@H](CCCCN)C(=O)N[C@H](C(=O)NCC(=O)O)[C@@H](C)O,SIRT3,,,,17500 nM
Cc1ccc(CNC(=O)[C@@H](NC(=O)[C@H](CCc2ccccc2)NC(=O)[C@H](CCc2ccccc2)N(C)C)C(C)C)cc1,Proteasome component C5/PSMB5,"β5 activity, inhibitor",,"added: Suc-LLVY-AMC, PA28α-activated",807 nM
CNC(=S)N/N=C/c1ccccn1,"SOD1 (Homo sapiens, UniProt P00441)","enzyme activity, inhibitor",HeLa,24 h,2120 nM
O=C[C@H](C[C@H]1CCNC1=O)NC(=O)[C@H](CC1CCCCC1)NC(=O)OCc1ccccc1,"Genome polyprotein, 3C protease (rhinovirus B14, UniProt P03303)","3C protease activity, inhibitor, FRET",,,73 ± 10 nM
C=CC(=O)N1[C@@H](c2ccc3c(c2)OCO3)c2[nH]c3ccccc3c2C[C@@H]1C(=O)N1CCOCC1,"Splicing factor 3B subunit 1 (Homo sapiens, UniProt O75533)",inhibitor,,,5200 nM
CC(C)OC(=O)C(CS)N1C(=O)c2ccc(N(C)C)cc2C1=O (centres unmarked),"VIM-2 (Escherichia coli, UniProt Q5U7L7)","enzyme activity, inhibitor",,pH 7,320 nM
COc1ccc2cc(C(=O)NCCN3CCC(Cc4ccccc4)CC3)ccc2c1,"SLC6A2 (Homo sapiens, UniProt P23975)","transporter uptake, inhibitor, radiometric",,,200 to 470 nM
COC(=O)C[C@H](NC(=O)[C@H](C)NC(=O)[C@@H](NC(=O)OCc1ccccc1)C(C)C)C(=O)CF,"Caspase-7 (CASP7, Homo sapiens, UniProt P55210)","enzyme activity, inhibitor, fluorescence",,,6 nM
CCC1(CC)C[C@@H](NC(=O)Nc2cccc3c(C)nccc23)c2cc(F)ccc2O1,TRPM8,"channel activity, blocker",,added: menthol 10 µM,> 25000 nM
CSCC[C@H](NC(=O)[C@H](CC(C)C)NC(=O)[C@H](Cc1c[nH]cn1)NC(=O)CNC(=O)[C@@H](NC(=O)[C@H](C)NC(=O)[C@H](Cc1c[nH]c2ccccc12)NC(=O)[C@H](CCC(N)=O)NC(=O)[C@H](CC(N)=O)NC(=O)[C@H](CC(=O)O)NC(=O)[C@H](CCCNC(=N)N)NC(=O)CNC(=O)CNC(=O)CN)C(C)C)C(N)=O,"GRPR (Homo sapiens, UniProt P30550)","ligand displacement, radioligand",,,46.7 nM
Cc1cc2c(NC(=O)N[C@@H]3CC(C)(C)Oc4c(OC(F)(F)F)cccc43)cccc2cn1,TRPM8,cell-based,,,25000 nM
N=C(N)NCCC[C@@H]1NC(=O)[C@H](Cc2c[nH]c3ccccc23)NC(=O)[C@H](CCCNC(=N)N)NC(=O)[C@H](Cc2c[nH]c3ccccc23)NC(=O)[C@H](CCCNC(=N)N)NC(=O)[C@H](Cc2c[nH]c3ccccc23)NC(=O)[C@H](CCCNC(=N)N)NC(=O)[C@H](Cc2c[nH]c3ccccc23)NC(=O)[C@H](CCCNC(=N)N)NC(=O)[C@H](Cc2c[nH]c3ccccc23)NC(=O)[C@H](CCCNC(=N)N)NC(=O)[C@H](Cc2c[nH]c3ccccc23)NC1=O,"SRC (Homo sapiens, UniProt P12931)","enzyme activity, inhibitor, radiometric",,,570 nM
Oc1cc(O)c2c(c1)OC(c1ccc(O)c(O)c1)C(OC1(c3ccc(O)c(O)c3)Oc3cc(O)cc(O)c3C(O)C1O)C2 (centres unmarked),"GPR35 (Homo sapiens, UniProt Q9HC97)",DMR desensitization,HT-29,"no detergent, added: zaprinast",14100 nM
C[C@H](NC(=O)[C@H](CC(=O)NCC(C)(C)C)NC(=O)C(=O)c1c[nH]c2ccccc12)C(=O)NCc1ccc(F)cc1F,Proteasome component C5/PSMB5,inhibitor,,,2.4 nM
O=C(OC(C(F)(F)F)C(F)(F)F)N1CCC(CCn2ncc3ccccc32)CC1,MGLL,"enzyme activity, inhibitor",,,330 nM
CCOc1cncc(-c2ccc(NC(=O)C(CC)c3ccnc(NS(=O)(=O)C4CC4)n3)nc2)n1 (centres unmarked),"CTP synthase 2 (CTPS2, Homo sapiens, UniProt Q9NRF8, T250I)",cell growth,CTPS-null Jurkat expressing CTPS2,3 d,27 nM
CC(C)=CCN=C(N)NCCC[C@@H](NC(=O)CCCc1ccc(O)cc1)C(=O)N[C@@H](Cc1ccccc1)C(O)CC(=O)N[C@@H](Cc1ccc(O)cc1)C(=O)O (stereo in doubt),"ADAM17 (Homo sapiens, UniProt P78536)","enzyme activity, inhibitor",,,> 100000 nM
CCCN(CC(=O)N(CCC)CC(=O)N(CCC)CC(=O)N(CCC)CC(=O)N(CC(=O)N(CCC)CC(=O)N(CCC)CC(=O)N(CCC)CC(=O)N(CCC)CC(=O)N(CC(N)=O)Cc1cn(CCCNC(=O)CCCOc2cccc(-c3nc4ccc(-c5nc6ccc(N7CCN(C)CC7)cc6[nH]5)cc4[nH]3)c2)nn1)Cc1cn(CCCNC(=O)CCCOc2cccc(-c3nc4ccc(-c5nc6ccc(N7CCN(C)CC7)cc6[nH]5)cc4[nH]3)c2)nn1)C(=O)CNCc1cn(CCCNC(=O)CCCOc2cccc(-c3nc4ccc(-c5nc6ccc(N7CCN(C)CC7)cc6[nH]5)cc4[nH]3)c2)nn1,r(CUG)109-MBNL1 complex,"binding, inhibitor",,added: 1.48 µM yeast tRNA,410 ± 23 nM
N=C(N)NCCCC(N)C(=O)NCC(=O)NC(CCCCNC(=N)NCCSCC1OC(n2cnc3c(N)ncnc32)C(O)C1O)C(N)=O (centres unmarked),"SETD7 (Homo sapiens, UniProt Q8WTS6)","enzyme activity, inhibitor, fluorescence",,,~100000 nM
COc1ccc(NC(=O)CN2c3cccc4cccc(c34)S2(=O)=O)cc1OCc1ccncc1,"CACNA1C (Homo sapiens, UniProt Q13936)","calcium signal, fluorescence",,,12300 nM
O=C(O)c1cc2cc(O)ccc2n1Cc1ccc(Cl)c(C(F)(F)F)c1,"ABCC4 (Homo sapiens, UniProt O15439)","transporter uptake, inhibitor",HEK293,cell membranes,12300 nM
O=C(NC1CCC1)c1ccc2nc(-c3ccccc3)cn2c1,"Protein ENL (MLLT1, Homo sapiens, UniProt Q03111)",,,,87 nM
COc1ccc(-c2cc(C(F)(F)F)n3nc(N)nc3n2)cc1OC,"Chemotaxis protein CheA (Escherichia coli, UniProt P07363)","kinase activity, ATP-competitive",,added: CheW,> 100000 nM
NS(=O)(=O)c1ccc(NC(=O)NN[C@@H]2O[C@H](CO)[C@@H](O)[C@H](O)[C@@H]2O)cc1,"CA9 (Homo sapiens, UniProt Q16790)","enzyme activity, inhibitor",,,45 nM
CC(C)c1ccc(CN2CCN(CC(=O)c3ccc4[nH]c(=O)[nH]c4c3)CC2)cc1,"DNA dC->dU-editing enzyme APOBEC-3B (Homo sapiens, UniProt Q9UH17)","enzyme activity, inhibitor",,pH 5.5,40000 nM
C[C@@H](OC(=O)c1cccc(S(=O)(=O)Nc2ccc3c(c2)OCO3)c1)C(=O)c1c[nH]c2ccccc12,"KCNA2/KCNA1 (Homo sapiens, UniProt P16389+Q09470)","potassium current, inhibitor, automated patch clamp","CHO-K1, concatemer expressing",,4070 nM
O=c1[nH]sc2ccccc12,"HDAC11 (Homo sapiens, UniProt Q96DB2)","enzyme activity, inhibitor",,,> 10000 nM

# For quick reference, copied from above:
SMILES,target,test,test system,setting,IC50
COC(=O)C[C@H](NC(=O)[C@H](C)NC(=O)[C@@H](NC(=O)OCc1ccccc1)C(C)C)C(=O)CF,"Caspase-7 (CASP7, Homo sapiens, UniProt P55210)","enzyme activity, inhibitor, fluorescence",,,6 nM
NS(=O)(=O)c1ccc(NC(=O)NN[C@@H]2O[C@H](CO)[C@@H](O)[C@H](O)[C@@H]2O)cc1,"CA9 (Homo sapiens, UniProt Q16790)","enzyme activity, inhibitor",,,45 nM
